Published values of several laboratories.
Each numbered part is a random draw from the data of one study; scales do not carry over between parts. Positions count from the first letter of the parent shown.

Study 1
Target: Sal-like protein 4, full length isoform B (SALL4, Homo sapiens, UniProt Q9UJQ4-2, residues 1-616)
Method: universal PBM
Molecule type: double-stranded DNA, one strand shown
Sample: in vitro
Concentration: not given
Notes: 8-mer, flanks averaged, mean of replicates
Reading: higher = stronger binding
Residues (chain): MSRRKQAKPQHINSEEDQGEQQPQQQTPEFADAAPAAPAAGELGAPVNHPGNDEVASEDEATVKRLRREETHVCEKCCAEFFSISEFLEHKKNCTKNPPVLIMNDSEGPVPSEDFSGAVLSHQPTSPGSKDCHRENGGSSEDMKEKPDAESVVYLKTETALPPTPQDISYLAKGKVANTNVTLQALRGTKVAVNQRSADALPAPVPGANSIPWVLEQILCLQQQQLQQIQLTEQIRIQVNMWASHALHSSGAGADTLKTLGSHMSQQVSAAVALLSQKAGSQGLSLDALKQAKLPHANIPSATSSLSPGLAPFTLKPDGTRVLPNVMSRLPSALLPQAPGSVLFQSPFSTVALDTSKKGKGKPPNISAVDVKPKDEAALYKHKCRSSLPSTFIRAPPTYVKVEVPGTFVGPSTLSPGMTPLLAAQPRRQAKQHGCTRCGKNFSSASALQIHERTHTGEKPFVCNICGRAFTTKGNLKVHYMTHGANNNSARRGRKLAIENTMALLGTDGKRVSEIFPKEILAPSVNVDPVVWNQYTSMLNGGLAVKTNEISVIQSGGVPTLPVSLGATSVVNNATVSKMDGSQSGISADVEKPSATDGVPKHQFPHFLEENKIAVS
Sequence	E-score
CCAGTGGC	-0.363
CTCGCTGC	-0.0947
GCGAATAC	-0.0224
ACTGTTCC	-0.0901
CATAGAAA	0.212
GAGGGGTA	-0.236
CCTTGATA	0.219
ATCCTGGA	-0.0572
GCGCGCTA	-0.171
GCCCTTAA	0.0043
GCGTAGTA	-0.029
ACCAATTG	0.131
ACTTCTGA	0.084
AGTCTAGC	-0.161
CTCGGTTA	-0.146
AGTTTTAA	0.228
AGGGCTCA	-0.15
CGGCTTAC	-0.183
ATTTCAGA	0.213
AAATCCTG	0.0618
AAACGTAG	0.0938
CGACAGCG	-0.239
GGGCGAGA	-0.245
AGAAGGGG	-0.214

Study 2
Target: JUND, bZIP domain (human)
Method: DHFR protein complementation
Sample: yeast
Notes: single substitutions, most at no-binding floor
Baseline: wild-type JUN-FOS pair
Reading: higher = stronger binding
Parent: JUN, bZIP domain (human); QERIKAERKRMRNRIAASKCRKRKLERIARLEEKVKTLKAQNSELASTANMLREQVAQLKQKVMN
Substitution	binding fitness [natural log]
Q41P	-1.49
L31M	-1.28
L38S	-1.38
R53N	-1.24
I28H	-1.36
K34G	-1.27
N42D	-1.5
K36W	-1.29
L45K	-1.35
L31Q	-1.31
L31V	-1.5
N42V	-1.39
Q41G	-1.35

Study 3
Target: Histone acetyltransferase KAT6A, winged helix 2, GST fusion (KAT6A, Homo sapiens, UniProt Q92794, residues 85-181)
Method: protein binding microarray
Molecule type: double-stranded DNA, one strand shown
Sample: in vitro
Concentration: not given
Notes: 8-mer, flanks averaged, mean of 2 arrays, mostly near background
Baseline: not given
Reading: higher = stronger binding
Target sequence (chain): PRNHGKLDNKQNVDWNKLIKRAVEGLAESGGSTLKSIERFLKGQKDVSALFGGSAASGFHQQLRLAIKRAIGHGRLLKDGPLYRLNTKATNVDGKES
Sequence	E-score
CCGTGGTC	-0.0736
GAGGGATC	-0.0406
ACAACCCG	-0.0491
CCTGCTTA	-0.0244
GGTACCTA	-0.0806
CTCGGGAA	0.166
ACGTGGGG	-0.0448
GAGACGCA	0.0198
TACCCTCA	-0.0849
GTGATGGA	-0.0408
GCAAGGAA	0.155
AACACGGC	0.0843
CGCGTCAC	0.119
CCAGTCCA	-0.123
GGCTTCGA	0.0922
CACCAGCA	0.0159
TACGATGA	-0.00166
ACCCGGGC	0.156
GGCGCCAC	0.0614

Study 4
Target: CCND1, cyclin fold, Cln2 fusion (human)
Method: yeast growth competition, sequencing
Sample: yeast
Notes: weak parent motif
Baseline: not given
Reading: higher = stronger binding
Parent: SLBP docking peptide (human); ARYKRKLLINDFG
Substitution	normalised enrichment score
L7R	-0.409
K6F	-0.0469
R5V	0.486
K4V	0.244
L8I	-0.0815
G13A	-0.397
D11M	1.35
F12K	-0.185
A1N	0.181
L7Y	-0.176
D11I	0.492
Y3C	-0.216
R2I	0.358
L7A	-0.542
Y3A	0.79
L7W	-0.476
N10P	0.0378
L8V	0.342
D11C	0.396
A1H	-0.153
G13D	-0.375
L7E	-0.469
K4N	0.12
Y3T	-0.289
K4G	-0.229

Study 5
Target: Interferon regulatory factor 7, full length, phosphomimetic (IRF7, Homo sapiens, UniProt Q92985, residues 1-503, S471D/S472D/S475D/S476D/S477D/S483D/S484D/S487D)
Method: protein-binding microarray
Molecule type: double-stranded DNA, one strand shown
Sample: in vitro
Concentration: 2200 nM top
Notes: 60-bp whole probe
Together with: salmon DNA 0.4 mg/ml
Baseline: random background probes
Reading: higher = stronger binding
All sequences stand within: GCCTAGCAC … GTCTTGATTCGCTTGACGCTGCTG
Target sequence (chain): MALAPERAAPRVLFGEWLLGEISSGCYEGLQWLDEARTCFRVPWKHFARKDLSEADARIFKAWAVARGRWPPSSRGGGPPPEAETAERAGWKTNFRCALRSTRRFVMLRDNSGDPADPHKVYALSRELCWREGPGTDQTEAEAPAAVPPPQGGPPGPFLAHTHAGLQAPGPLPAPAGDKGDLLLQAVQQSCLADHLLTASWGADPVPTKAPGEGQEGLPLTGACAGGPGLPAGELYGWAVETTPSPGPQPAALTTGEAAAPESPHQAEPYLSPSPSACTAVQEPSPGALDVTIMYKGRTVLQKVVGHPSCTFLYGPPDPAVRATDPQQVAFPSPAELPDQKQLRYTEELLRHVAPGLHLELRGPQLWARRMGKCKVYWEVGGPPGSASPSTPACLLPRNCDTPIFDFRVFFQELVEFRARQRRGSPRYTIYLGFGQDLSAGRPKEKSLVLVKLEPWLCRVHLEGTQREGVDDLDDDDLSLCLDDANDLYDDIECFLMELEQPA
Sequence	fitted relative affinity [z-score]
TCAAACTTTTTTCTGATACTGTGCTAG	0.461
GACGATTTCAGACTGGAGATGTGCTAG	0.488
TTAGGTTTCGGGTTTCGGTTGGTGCTA	12
TCATTTTTCCCCTGCACACTGTGCTAG	2.79
TTAGGTATCGACACTGTGTTAGTGCTA	0.257
GACGAATTGAGTTTCGAGACGTGCTAG	2.11
GACGGTTTCCTTTTCCAGACGTGCTAG	5.46
GAAGATTTCGGGACTGGAGACGTGCTA	0.654
TCACATTTCCTTTACATACTGTGCTAG	3.24
GACGATTTCGGGACTGCAGACGTGCTA	1.43
GACGGTTGCCTTATCCTGACGTGCTAG	0.598
TCACCTCAGGGTTTCAGACTGTGCTAG	0.349
TCACAAATGCCCTCTCCAACTGTGCTA	0.771
CCATTCTTGGGACTCACCTGGTGCTAG	1.11
TGGGTATTTTTTCTGAACCAGTGCTAG	0.613
TTAGGTTTCGGTATCTGTTAGTGCTAG	7.06
TTAAGTATCCTTATCCTTTAGTGCTAG	1
GAGGGTCTCGGTATCGGGACGTGCTAG	-0.438
TTAGATCTCGGTATCGATTAGTGCTAG	0.404

Study 6
Target: Ras GTPase-activating protein-binding protein 1, full length (G3BP1, Homo sapiens, UniProt Q13283)
Chain of UniProt Q13283 (whole entry, looked up): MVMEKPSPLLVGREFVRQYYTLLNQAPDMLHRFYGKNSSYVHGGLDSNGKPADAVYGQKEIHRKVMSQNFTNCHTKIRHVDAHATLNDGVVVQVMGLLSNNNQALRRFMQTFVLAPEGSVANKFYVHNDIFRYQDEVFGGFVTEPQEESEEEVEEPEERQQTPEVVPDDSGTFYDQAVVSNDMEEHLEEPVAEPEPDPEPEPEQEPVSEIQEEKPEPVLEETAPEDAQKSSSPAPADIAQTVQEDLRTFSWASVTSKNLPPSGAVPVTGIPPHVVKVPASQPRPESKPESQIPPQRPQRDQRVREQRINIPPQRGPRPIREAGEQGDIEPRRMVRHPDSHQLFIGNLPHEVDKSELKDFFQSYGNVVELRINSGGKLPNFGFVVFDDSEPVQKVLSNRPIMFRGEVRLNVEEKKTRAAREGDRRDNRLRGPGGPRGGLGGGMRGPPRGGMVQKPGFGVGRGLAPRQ
Method: RNA Bind-n-Seq
Molecule type: RNA
Sample: in vitro
Concentration: 200 nM
Notes: whole 134-nt RNA, ends assumed
Together with: 150 mM KCl
Baseline: input library
Reading: higher = stronger binding
All sequences stand within: GGGAGUUCUACAGUCCGACGAUC … UGGAAUUCUCGGGUGUCAAGG
Sequence	log2 enrichment
UGUGUUGUGCUCAUUACCAGUGCAGCGACUGCCGUCCCAGGGUGACUCUGAGUUGUCCUUUAUCGUGAGCUAGCAAUGGCUAGCGAAGAC	-1.99
GCAGGAAGUAAAAACGAAUGGAAAUGCUUCGGAUAGUGGCAGGGGUGGGGGUUGCUAAGGAAAGGGUGGGAUGGGAGUGGGUAAAGAGUU	0.949
CAAGUCCUGUGCUACACAUCGUAUGUACCGAAUCGGGGUGGGGUGGGGAAAGGGGAAAGUAUUAUGUUACGCCGUUCGGAUCUGCACUUC	1.19
ACCAUGCAGGUGGGCAUCUUUGGGAAGUGGGGCAAGGGGGGGAUAGCGAGGGGGGUAACACUUUGGGAACAGGUGGUCCCAGGUCGUUUC	0.98
UCCUGUGCUACACAUCGUAUGUACCGAAUCGGGGUUUGGGGAAAGGGGUUUUUUUGGGGAAAGUAUUAUGUUACGCCGUUCGGAUCUGCA	0.842
GUCCUGUGCUACACAUCGUAUGUACCGAAUCGGGGAGGGGAAAGGGGAAAAAAAGGGGAAAGUAUUAUGUUACGCCGUUCGGAUCUGCAC	0.428
UAACUUUAGAUGAGGAUCUGAUGGAUAUGGCAGUGGACGUGGAUUUGGGGAUGGCUAUAAUGGGUAUGGAGGAGGACCUGGAGGUGGCAA	0.215
CAAGUCCUGUGCUACACAUCGUAUGUACCGAAUCGGGAGGGAGGGAAAAAAAGGGAAAGUAUUAUGUUACGCCGUUCGGAUCUGCACUUC	0.252
UCAAGUCCUGUGCUACACAUCGUAUGUACCGAAUCGGUGGAAAAAGGAAAAAGGAAAGUAUUAUGUUACGCCGUUCGGAUCUGCACUUCC	-0.756
UCAAGUCCUGUGCUACACAUCGUAUGUACCGAAUCGGUUUGGUGGAAAAAAAGGAAAGUAUUAUGUUACGCCGUUCGGAUCUGCACUUCC	-0.711
UGCUUCAUCGCCUUGUGCUCCUGCCCCUGGGAGCUGUGGAUCCCAGAUCCAGAUGACAGCCCACCUUGCUGGCAGGAUGCGCCAAUCCCC	-0.237
CCUCAAGUCCUGUGCUACACAUCGUAUGUACCGAAUCGGGGCGGCGGGGCGGAAAGUAUUAUGUUACGCCGUUCGGAUCUGCACUUCCAG	0.177
ACCACUGCUACAGUCACCACCACCCAGGCCUCCUAUGCAGCUCAGUCUGCAUAUGGCACUCAGCCUGCUUAUCCAGCCUAUGGGCAGCAG	-0.0676
CUGUGCUACACAUCGUAUGUACCGAAUCGGGCCCCCCCGGGGCCCCCCCGGGCCCCCCCGGAAAGUAUUAUGUUACGCCGUUCGGAUCUG	-0.737

Single results of other studies
Substance	target	assay	test system	conditions	how to read	endpoint	value
PhoQ, residues 284 288 289 292 302 303 SSYNSA	PhoP, residues 12 14 15 18 19 TTLRV (Escherichia coli, UniProt P23836)	Sort-seq, item: YFP reporter	E. coli	PhoQ-PhoP variant library, together with: 10 µM Mg2+	baseline: high Mg2+ state, higher = stronger signaling	fold induction	7.5
